# Results collected from several papers.
# Lines come from different studies, so protocols differ. ± marks the error that the study gave.
Molecule,assay,test system,conditions,quantity,value
COc1cccc2c1C(=O)c1c(O)c3c(c(O)c1C2=O)C[C@@](O)(C(=O)CO)C[C@@H]3O[C@H]1C[C@H](NC(=O)[C@@H]2CCCN2C(=O)CN)[C@H](O)[C@H](C)O1,,"mouse, E0771 tumour-bearing, tumor","intravenous, 92 µmol/kg PhAc-ALGP-Dox",terminal half-life,10 h
CSCC[C@H](NC(=O)[C@H](CC(C)C)NC(=O)[C@H](Cc1c[nH]cn1)NC(=O)CNC(=O)[C@@H](NC(=O)[C@H](C)NC(=O)[C@H](Cc1c[nH]c2ccccc12)NC(=O)[C@H](CCC(N)=O)NC(=O)CCCCCNC(=O)[C@H](CCC(=O)NCCCC[C@@H]1NC(=O)[C@@H](Cc2ccc(O)cc2)NC(=O)[C@H](CC(=O)O)NC(=O)CNC(=O)[C@H](CCCNC(=N)N)NC1=O)NC(=O)CN1CCN(CC(=O)O)CCN(CC(=O)O)CC1)C(C)C)C(N)=O [copper-64 labelled],,"ICR SCID mouse, female, spleen","intravenous, 750 kBq, 1 h",tissue uptake,0.96 ± 0.21 %ID/g
insulin degludec,,"human, severe hepatic impairment, serum","subcutaneous, 0.4 U/kg single dose",AUC(0-120 h),0.0798 µM·h
CC(C)[C@H](NC(=O)[C@@H]1CCCN1C(=O)[C@H](CCCNC(=N)N)NC(=O)[C@H](CS)NC(=O)[C@H](Cc1c[nH]c2ccccc12)NC(=O)[C@H](CCCNC(=N)N)NC(=O)[C@@H](Cc1ccccc1)NC(=O)[C@H](Cc1c[nH]cn1)NC(=O)[C@H](CCC(=O)O)NC(=O)[C@H](CS)NC(=O)[C@H](CS)NC(=O)[C@H](CCCNC(=N)N)NC(=O)[C@@H]1CC(=O)N[C@@H](CCCNC(=N)N)C(=O)N[C@@H](C)C(=O)N[C@@H](CC(=O)O)C(=O)N[C@H](Cc2ccc(O)cc2)C(=O)N1)C(N)=O [technetium-99m labelled],,"C57 mouse, intestine","intravenous, 0.037 MBq, 4 h",tissue uptake,2.24 ± 1.08 %ID
rnpA F107W (Bacillus subtilis),"NMR, refers to: His3",,"25 °C, 0.15 M NaCl, sulfate-bound folded state, added: 20 mM Na2SO4",pKa,6.16
CC(C)[C@H](NC(=O)[C@@H]1CCCN1C(=O)[C@H](CCCNC(=N)N)NC(=O)[C@H](CS)NC(=O)[C@H](Cc1c[nH]c2ccccc12)NC(=O)[C@H](CCCNC(=N)N)NC(=O)[C@@H](Cc1ccccc1)NC(=O)[C@H](Cc1c[nH]cn1)NC(=O)[C@H](CCC(=O)O)NC(=O)[C@H](CS)NC(=O)[C@H](CS)NC(=O)[C@H](CCCCN)NC(=O)[C@@H]1CC(=O)N[C@@H](CCCNC(=N)N)C(=O)N[C@@H](C)C(=O)N[C@@H](CC(=O)O)C(=O)N[C@H](Cc2ccc(O)cc2)C(=O)N1)C(N)=O [technetium-99m labelled],,"C57 mice, bladder","iv, 0.037 MBq, 0.5 h",tissue uptake,30.9 ± 5.12 %ID
COc1cccc2c1C(=O)c1c(O)c3c(c(O)c1C2=O)C[C@@](O)(C(=O)CO)C[C@@H]3O[C@H]1C[C@H](NC(=O)[C@@H]2CCCN2C(=O)CNC(=O)[C@@H](N)CC(C)C)[C@H](O)[C@H](C)O1,,"mouse, E0771 tumour-bearing, kidney","intravenous, 92 µmol/kg PhAc-ALGP-Dox",terminal half-life,3.3 h
Insulin human,ELISA,"rat, hippocampus","intranasal, 20 µg per nostril, 120 min",concentration,8.3 ± 4.9 pg/mg tissue
insulin degludec,insulin degludec-specific ELISA,"healthy human subjects, serum","subcutaneous, thigh, 0.4 U/kg",AUC(0-120 h),0.0767 µM·h

# Repeated from above:
Molecule,assay,test system,conditions,quantity,value
COc1cccc2c1C(=O)c1c(O)c3c(c(O)c1C2=O)C[C@@](O)(C(=O)CO)C[C@@H]3O[C@H]1C[C@H](NC(=O)[C@@H]2CCCN2C(=O)CN)[C@H](O)[C@H](C)O1,,"mouse, E0771 tumour-bearing, tumor","intravenous, 92 µmol/kg PhAc-ALGP-Dox",terminal half-life,10 h
